Measurements from different studies.
Every numbered part comes from another study and shows a few of its results, in no order. Changes are numbered by the printed parent chain.

Block 1 — method: protein-binding microarray; molecule type: double-stranded DNA, one strand shown; matrix: in vitro; concentration: 2200 nM top; setting: 60-bp whole probe; with: salmon DNA 0.4 mg/ml; relative to: random background probes; direction: higher = stronger binding; shared flanks, not repeated: GCCTAGCAC … GTCTTGATTCGCTTGACGCTGCTG
Target: Interferon regulatory factor 7, full length, phosphomimetic (IRF7, Homo sapiens, UniProt Q92985, residues 1-503, S471D/S472D/S475D/S476D/S477D/S483D/S484D/S487D)
Chain of UniProt Q92985 (whole entry, unmodified, looked up): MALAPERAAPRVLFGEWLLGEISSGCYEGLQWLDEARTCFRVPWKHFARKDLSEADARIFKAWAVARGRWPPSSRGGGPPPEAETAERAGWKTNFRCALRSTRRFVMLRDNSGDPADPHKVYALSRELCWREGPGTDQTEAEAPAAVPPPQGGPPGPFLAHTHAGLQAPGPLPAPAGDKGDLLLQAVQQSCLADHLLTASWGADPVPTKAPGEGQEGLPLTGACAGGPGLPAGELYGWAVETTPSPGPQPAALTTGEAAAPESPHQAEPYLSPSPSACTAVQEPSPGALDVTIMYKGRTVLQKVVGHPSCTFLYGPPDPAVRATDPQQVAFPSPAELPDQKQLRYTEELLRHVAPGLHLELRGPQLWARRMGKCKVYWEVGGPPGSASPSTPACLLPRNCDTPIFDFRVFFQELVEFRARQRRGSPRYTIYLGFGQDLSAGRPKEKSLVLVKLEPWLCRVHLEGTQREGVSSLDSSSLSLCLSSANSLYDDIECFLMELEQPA
| Oligonucleotide | fitted relative affinity [z-score] |
| --- | --- |
| TTAGATTCCAGTTACGATTAGTGCTAG | 1.8 |
| GACGGTATCGGTCTCGGGATGTGCTAG | 0.283 |
| TTAGATTTCAGTTTCGATTAGTGCTAG | 8.07 |
| TCACGCTTCATCTCCCAGACTGTGCTA | 2.12 |
| GACGATATCAGTCTGGAGACGTGCTAG | 0.00111 |
| TTAGATATCTGTCTCGATTAGTGCTAG | 0.545 |
| TTAGATTCCAGTTTCGATTTGTGCTAG | 12.3 |
| TTAGATATCAGTATCGACTAGTGCTAG | 0.0172 |
| TATAGGTTGTTTCTAATATTGTGCTAG | 0.686 |
| GACGCTTTCGGGTTTCGGGACGTGCTA | 10.5 |
| GACGGACTGGGGACTTGGGACGTGCTA | -0.919 |
| GACGATTTCAGTATCGACACGTGCTAG | 1.06 |
| TTAGATCTCAGGTTCGATTAGTGCTAG | 0.619 |
| TCAATGTTCACTATTTAACTGTGCTAG | 0.86 |
| TTAGATCTCCTTTTCCTTTAGTGCTAG | 2.15 |
| GACGGTATCGGGAATCGGGACGTGCTA | -0.351 |
| TTAGGTATGGACTATCGGTTAGTGCTA | 0.0673 |
| GACGGTTTCGGTATCGGCACGTGCTAG | 7.56 |
| GACGATTCCTGTTTCGAGACGTGCTAG | 3.26 |

Block 2 — method: DHFR PCA, dose-response; matrix: yeast; setting: Hill fit, mean, not affinity; with: (+)-ABA, dose series; direction: lower = more sensitive
Target: ABI1, truncated, D143A, DHFR fusion (Arabidopsis thaliana, UniProt P49597)
Starting sequence: PYL1, truncated, DHFR fusion (Arabidopsis thaliana, UniProt Q8VZS8); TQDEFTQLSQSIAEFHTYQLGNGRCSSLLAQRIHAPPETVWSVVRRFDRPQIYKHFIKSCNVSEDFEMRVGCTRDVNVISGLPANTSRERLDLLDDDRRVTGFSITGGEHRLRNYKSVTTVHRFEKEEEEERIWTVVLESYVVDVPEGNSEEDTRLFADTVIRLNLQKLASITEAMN
| Variant | ABA EC50 |
| --- | --- |
| S11Q | 1.21 µM |
| E174L | 35.1 µM |
| H34G | 3.99 µM |
| A30P | 61.9 µM |
| H34I | 6.55 µM |
| G148F | 23.6 µM |
| E128K | 2.51 µM |
| V142G | 31.4 µM |
| V70G | 64 µM |

Block 3 — method: RNA Bind-n-Seq; molecule type: RNA; matrix: in vitro; concentration: 100 nM; relative to: input RNA pool; direction: higher = stronger binding
Target: RING finger protein unkempt homolog, zinc fingers 1-6, SBP tag (UNK, Homo sapiens, UniProt Q9C0B0, residues 30-357)
Chain of UniProt Q9C0B0 (30-357, looked up): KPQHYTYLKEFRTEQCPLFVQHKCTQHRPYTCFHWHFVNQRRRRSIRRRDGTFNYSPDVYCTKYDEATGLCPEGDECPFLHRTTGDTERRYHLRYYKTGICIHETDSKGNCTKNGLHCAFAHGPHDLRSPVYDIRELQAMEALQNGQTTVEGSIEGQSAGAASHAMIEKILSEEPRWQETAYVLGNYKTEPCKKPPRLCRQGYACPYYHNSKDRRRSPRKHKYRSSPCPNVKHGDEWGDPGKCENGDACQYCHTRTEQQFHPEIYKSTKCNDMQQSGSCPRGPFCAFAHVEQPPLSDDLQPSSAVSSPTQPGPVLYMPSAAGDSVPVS
Setting: RNA with constant flanks, vertebrate orthologous sites, ends assumed
| Oligonucleotide | bound/input enrichment |
| --- | --- |
| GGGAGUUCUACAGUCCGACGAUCGCCUGUGCUUAUACUCUUCUGAGGAAGAGACAAAUUGGGGAAAACUGUCUCCUUUUUAUAGUUUCCUUCUAAAUUAUGACCAGAAGAUAUUUUGCUAUUUCUUUCUUUAUAUAUGGACUUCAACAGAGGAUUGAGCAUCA | 0.483 ratio |
| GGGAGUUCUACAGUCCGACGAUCUGUCUCCGUGGAGCCUGGGAGCAUCCGUGCUGCCGGGGGCUCUUACUUUGUUUUCUUUUCCUCGGGGUGGGGGUGGGUCGUGGUGCCCACCGUGCUGAGGCGUCAGCGUGGGUGGUGGGUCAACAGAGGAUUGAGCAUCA | 0.143 ratio |
| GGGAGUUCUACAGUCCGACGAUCCCUACAAUAAUGAAAACCUACAAGAAUUUUUUUAUUUUUCAUUUUCCCCUUAGGCAUAUUUAGUAUUUUUUCCCCCAGGCAGAUCAUUCUGAGUGUGCGUGUGUGUGUGCACAUGUUACACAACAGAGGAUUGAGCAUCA | 2.82 ratio |
| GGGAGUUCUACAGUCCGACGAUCAGCAGGCCAGGGAUUGAGGCCCACCUUCCCACAUAUACCAAGUAGAUAUGGAAUCAACAGGAUGGGGCAGCCAAGACCCUGACAGACUCUAACUUAUUGUGAUGGGGAAUAGCGACUUCUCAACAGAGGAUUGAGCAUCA | 0.531 ratio |
| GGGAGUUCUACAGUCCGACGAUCGUGUUGGUGCAGAGUGCUCUGUACCAGUGCUCAUCAUCCCUUCUUCAUACCAAUUGUCCCUAGUUAUAGGAAUUUAAUAUUUUUAAAAGUUUUACAUUGCUGUAUAUUCAAAGAUUUGUUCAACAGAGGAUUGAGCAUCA | 0.886 ratio |
| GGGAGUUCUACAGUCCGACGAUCACCUUUUGUAGGCCAAAUACCCUCCUUCUACUGCUUCUGCCAACUGGAAGCACAGAAAACUAGAAUUUCAUUUUAUUUUGUUUAAAAAAAAAAAAAAAUUUGAUUUCUUGUAACAUCCACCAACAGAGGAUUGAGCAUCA | 0.675 ratio |
| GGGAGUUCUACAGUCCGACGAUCUCCCCGUUACCCCUAAAGUAAAACAUUUUUUAAAUUGUGUUGCCACCACUUCUAAAAAUUUAGCAAUAUUAGAAUAGGAUACUAGUGAAGUAAGAAAUUUUGCUUGUUGUUUUGCAAACCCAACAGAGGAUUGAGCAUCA | 2.08 ratio |
| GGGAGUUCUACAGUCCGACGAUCGUGACUUUGGACGUCCGCUCAGCCGGGUUGCAGAAGCUGUUUGGUGCCUGUCGUGCGCUCGUUCUCCCGUCUCUGGAGGUAGGCCUCUGCCGCAAACAUGCUCCGCCAGAUCCUCGGGCACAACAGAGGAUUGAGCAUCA | 0.341 ratio |

Block 4 — target: human cyclin A2; method: competitive growth deep sequencing; molecule type: peptide; organism: Saccharomyces cerevisiae; strain: cyclin A2-Cln2 fusion strain; setting: peptide tiling library; direction: direction not given
| Molecule | enrichment score |
| --- | --- |
| VKTKKRLNFDDK | 1.68 |
| NLEPNAEFDKRTEFIT | 0.491 |
| IPDRSTKPVVFSPT | 0.725 |
| TQERKQIHCLSEDELS | 0.428 |
| RRRRLLFWDKETQI | 0.00532 |
| RRRIKLPESDSSED | 1.67 |
| HRRRLLFACSPPPASQ | -0.148 |

Block 5 — method: competition protein-binding microarray; molecule type: double-stranded DNA, one strand shown; matrix: in vitro; concentration: 2 µM; with: Pho4 competitor, 0.05 µM; direction: higher = stronger binding
Target: Centromere-binding protein 1, full length, His-tagged (CBF1, Saccharomyces cerevisiae, UniProt P17106, residues 1-351)
Chain of UniProt P17106 (whole entry, looked up): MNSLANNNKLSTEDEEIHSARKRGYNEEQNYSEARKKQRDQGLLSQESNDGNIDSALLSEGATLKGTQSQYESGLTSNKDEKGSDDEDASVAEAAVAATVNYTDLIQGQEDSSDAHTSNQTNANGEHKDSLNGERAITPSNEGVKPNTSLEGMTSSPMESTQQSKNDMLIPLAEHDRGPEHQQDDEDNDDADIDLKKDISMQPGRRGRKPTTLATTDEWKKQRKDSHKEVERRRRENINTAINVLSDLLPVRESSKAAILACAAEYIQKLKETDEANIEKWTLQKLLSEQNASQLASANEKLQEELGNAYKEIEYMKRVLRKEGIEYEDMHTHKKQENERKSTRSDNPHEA
Setting: whole 60-bp probe, lowest competitor level
| Oligonucleotide | fluorescence intensity [a.u.] |
| --- | --- |
| CGTCCTAGTGATTGCTTTGTGGGTGCCATGAGGAAGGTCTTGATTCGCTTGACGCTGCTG | 85.5 |
| CTGGTGTCTAATATGCACATGCCTGGTACTACCAGTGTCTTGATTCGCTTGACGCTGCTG | 99.4 |
| AAAGCGGTAATTTGCGCTGTGGGTGCAGATATCTATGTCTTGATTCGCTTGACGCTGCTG | 77.9 |
| GTAAAAGTGGCAGCACACCTGATCTAATACTAGCTAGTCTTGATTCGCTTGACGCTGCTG | 251 |
| AAGACCCCGGTAAAATTCGTGACGGATCATCGCCTAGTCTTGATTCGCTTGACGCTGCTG | 65.2 |
| AAGAAAGTTCCACTTCACGTTTCCCCAGCTTTCCGGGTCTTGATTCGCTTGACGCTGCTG | 87.3 |
| CACAGATGAGTCAGCTTCGTGATGGCCTGTTTCGGTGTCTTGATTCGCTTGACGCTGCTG | 70.4 |
| AAATTACTAAGTTGCGGAGTGGGTGACGCCGTATGAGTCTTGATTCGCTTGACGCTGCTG | 80 |
| CATACCCAACCTTGTAGCGTGGGTGAAGATATTTGTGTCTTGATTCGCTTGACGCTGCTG | 71.2 |
| AAATTACTAAGTTGGCGTGTGGGTGACGCCGTATGAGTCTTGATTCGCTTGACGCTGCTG | 75 |
| TAGGCGCAGACCGCGCTCGTGAAGCAGACCTCCCGGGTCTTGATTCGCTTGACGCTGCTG | 61.3 |
| CTGGAGCTGTTTCCAAACGTGGCCGGGCAATTGAGCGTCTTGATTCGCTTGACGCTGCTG | 68.5 |
| CGTCCTAGCGATTGAGATGTGGGTGCCATGAGGAAGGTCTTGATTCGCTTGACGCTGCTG | 66.5 |

Other studies, line by line
| Substance | target | test | system | conditions | how to read | endpoint | result |
| --- | --- | --- | --- | --- | --- | --- | --- |
| PhoQ, residues 284 288 289 292 302 303 QWGLFV | PhoP, residues 12 14 15 18 19 SYFRT (Escherichia coli, UniProt P23836) | Sort-seq, refers to: YFP reporter | E. coli | PhoQ-PhoP variant library, with: 10 µM Mg2+ | relative to: high Mg2+ state, higher = stronger signaling | fold induction | 0.821 |
